Measured values of several laboratories.
Each line is one published result; not all experiments were run side by side. ± marks the error that the study gave.
folP: Dihydropteroate synthase (folP, Bacteria, UniProt P0AC13)
SETDB1: Histone-lysine N-methyltransferase SETDB1 (SETDB1, Homo sapiens, UniProt Q15047)
ALB: Albumin (ALB, Homo sapiens, UniProt P02768)
T1: RNA aptamer; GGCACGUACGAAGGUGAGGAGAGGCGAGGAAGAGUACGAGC

COc1ccccc1-c1ccncc1C(=O)Nc1nnc(OCc2ccc(Cl)cc2)s1
remaining activity (DNA polymerase theta, helicase domain (POLQ, Homo sapiens, UniProt O75417); ATPase activity, ADP-Glo; 0.002 µM, with: ATP 400 µM): 94%

O=C1c2sc(-c3ccc(N4CCC(F)C4)nc3F)nc2CCN1c1cccnc1 (centres unmarked)
specific binding (TAR DNA-binding protein 43, aggregated (TARDBP, Homo sapiens, UniProt Q13148); saturation autoradiography; human, FTLD-TDP type A brain sections; 0.72 nM): 18.1 nM

CC[C@H](C)[C@H](NC(=O)[C@H](CCC(=O)O)NC(=O)[C@H](CCCNC(=N)N)NC(=O)[C@H](C)NC(=O)[C@H](Cc1c[nH]c2ccccc12)NC(=O)[C@H](CCC(=O)O)NC(=O)[C@H](CCC(=O)O)NC(=O)[C@H](CCC(=O)O)NC(C)=O)C(=O)NCC(=O)N[C@@H](C)C(=O)N[C@@H](Cc1ccc(O)cc1)C(=O)N[C@@H](CC(C)C)C(=O)N[C@@H](CCCNC(=N)N)C(=O)N[C@@H](CCCNC(=N)N)C(=O)N[C@@H](C)C(=O)N[C@@H](C)C(=O)N[C@@H](CC(=O)O)C(=O)N[C@@H](CC(=O)O)C(=O)N[C@@H](CC(C)C)C(=O)N[C@@H](CC(N)=O)C(=O)N[C@@H](C)C(=O)N[C@@H](CCC(N)=O)C(=O)N[C@@H](Cc1ccc(O)cc1)C(=O)N[C@@H](CCC(=O)O)C(=O)N[C@@H](CCCNC(=N)N)C(=O)N[C@@H](CCCNC(=N)N)C(=O)N[C@@H](CCCNC(=N)N)C(N)=O
ΔΔG (Induced myeloid leukemia cell differentiation protein Mcl-1 homolog, residues 152-308 (Mus musculus, UniProt P97287); binding, SPR; baseline: PUMA peptide): -1.52 kcal/mol

CCC1(CC)C(=O)N(c2ccc(CC(=O)O)cc2)C1=O.O=C(O)C(F)(F)F
activity vs control (Dipeptidyl peptidase 9 (DPP9, Homo sapiens, UniProt Q86TI2); enzyme activity, inhibitor; 5 µM): 22%

CC(C)(C(=O)N1CCC(Nc2nc3c(c(=O)[nH]2)CCCC3)CC1)c1ccc(Cl)cc1
Emax (MRGPRD (Homo sapiens, UniProt Q8TDS7, Q182A); miniGq recruitment, agonist, BRET; HEK293T; Q182A mutant; baseline: wild type): 85.4 ± 4.31%

COC(=O)CC(C)c1nn(C)c2nc(N)[nH]c(=O)c2c1=O (centres unmarked)
melting temperature shift (folP; CETSA HiBiT; Escherichia coli, cell lysate; concentration not given; baseline: DMSO): 10.5 °C

COC(=O)[C@@]1(Cc2ccccc2)C=C(C(=O)OC(C)(C)C)C(=O)CC1
fraction bound (Mitogen-activated protein kinase 14 (MAPK14, Homo sapiens, UniProt Q16539, C119V); peptide binding, fluorescence polarization; 125 µM): 0.11

CC(C)[C@@H]1NC(=O)[C@H](Cc2ccccc2)NC(=O)CSC[C@@H](C(N)=O)NC(=O)[C@H](CCC(=O)O)NC(=O)[C@H](CO)NC(=O)[C@H](Cc2c[nH]c3cccc(Cl)c23)NC(=O)[C@H](C2CCCCC2)NC(=O)[C@H](C(C)C)NC(=O)[C@H](Cc2ccc(O)cc2)NC(=O)[C@H](CC(=O)O)NC(=O)[C@H](Cc2c[nH]c3ccccc23)NC(=O)[C@H](Cc2ccc(N)nc2)NC(=O)[C@H](Cc2c[nH]c3ccc(Cl)cc23)NC(=O)[C@H](CCC(=O)O)NC1=O
remaining activity (Interleukin-1 receptor-like 2 (IL1RL2, Homo sapiens, UniProt Q9HB29); reporter gene (SEAP), inhibitor, HEK-Blue IL-36R reporter; HEK-Blue IL-36R cells; 1.23 µM, 6 h, with: IL-36β 30 ng/mL): 96.3%

CC1CCCN(CCCNC(=O)C2=Cc3sc4c(c3CS2)CCCC4)C1 (centres unmarked)
ΔS (Catenin beta-1, residues 141-305 (CTNNB1, Homo sapiens, UniProt P35222); ITC; 25 °C): 0.8 cal/mol/K

CC[C@H](C)[C@@H]1NC(=O)[C@H](C)NC(=O)[C@H](CCC(N)=O)NC(=O)[C@@H](NC(=O)CN)CSSC[C@@H]2NC(=O)CNC(=O)[C@H](C)NC(=O)[C@H](CC(C)C)NC(=O)[C@@H]3CSSC[C@@H](C(=O)NCC(=O)O)NC(=O)[C@H](Cc4ccccc4)NC(=O)CNC(=O)[C@H](CC(N)=O)NC(=O)[C@@H]4CCCN4C(=O)CNC(=O)[C@H](CSSC[C@H](NC(=O)[C@H](CCCNC(=N)N)NC(=O)[C@H](CCC(N)=O)NC(=O)[C@H](CCCNC(=N)N)NC(=O)[C@H](CCCCN)NC(=O)[C@H](C(C)C)NC(=O)[C@H](CCCNC(=N)N)NC(=O)[C@H](CC(N)=O)NC1=O)C(=O)N[C@@H](CCCCN)C(=O)N[C@@H](CCC(N)=O)C(=O)N[C@@H](CC(=O)O)C(=O)N[C@@H](CO)C(=O)N[C@@H](CC(=O)O)C(=O)N3)NC(=O)[C@H](C(C)C)NC2=O
kon (Low-density lipoprotein receptor-related protein 6, E1 domain (LRP6, Homo sapiens, UniProt O75581); binding, SPR; pH 7.5): 2.43e+06 ± 470000 M⁻¹ s⁻¹

C=C(NC(=O)[C@H](C)NC(=O)c1csc(-c2cccnc2)n1)C(=O)OC
adduct formation rate (Thioredoxin-dependent peroxide reductase, mitochondrial (PRDX3, Homo sapiens, UniProt P30048, A142E/C108S/S139E); MALDI-TOF, measured: CR adduct; PRDX3 C108S; 200 µM, 37 °C): 0.0029 ± 0.0002 min⁻¹

CC[C@H](C)[C@H](NC(=O)[C@H](Cc1c[nH]cn1)NC(C)=O)C(=O)N[C@@H](CCCCN)C(=O)N[C@H](C(=O)N[C@@H](Cc1c[nH]cn1)C(=O)N[C@@H](CC(C)C)C(=O)N[C@@H](CC(=O)O)C(=O)N[C@@H](CCC(=O)O)C(=O)N[C@@H](CCC(=O)O)C(=O)N[C@H](C(=O)NCC(=O)N[C@@H](CCC(=O)O)C(=O)N[C@@H](CCCCN)C(=O)N[C@H](C(=O)N[C@@H](CO)C(=O)N[C@H](C(=O)N[C@H](C(=O)N[C@@H](CC(C)C)C(=O)N[C@@H](CC(=O)O)C(=O)N[C@H](C(N)=O)C(C)C)[C@@H](C)O)[C@@H](C)CC)[C@@H](C)O)[C@@H](C)O)[C@@H](C)O
ΔH (Kelch-like ECH-associated protein 1, Kelch domain (KEAP1, Homo sapiens, UniProt Q14145); binding, ITC; pH 7, 298.15 K): -19.3 ± 0.123 kcal/mol

CCCCCCCCCCCCC/C=C/C=O
isoTOP-ABPP competition ratio (Methylosome protein WDR77 (WDR77, Homo sapiens, UniProt Q9BQA1); competitive isoTOP-ABPP, measured: WDR77 cysteine peptide; Ramos soluble proteome; 100 µM, with: iodoacetamide probe; baseline: DMSO over compound-treated, higher = stronger cysteine blockade): 1.4

CC(=O)NCCCCCNc1nc(NCCCCCCN(C)C)c2cc(NC(=O)/C=C/CN(C)C)ccc2n1
remaining signal (SETDB1; cell-free assay, inhibitor, FP; 3.906 nM): 139%

CC(CC(=O)O)c1n[nH]c2nc(N)[nH]c(=O)c2c1=O (centres unmarked)
melting temperature shift (folP; CETSA HiBiT; Escherichia coli, cell lysate; concentration not given; baseline: DMSO): 15.5 °C

CN(CCCN1CCN(C(=O)CN2CCN(CC(=O)[O-])CCN(CC(=O)[O-])CCN(CC(=O)[O-])CC2)CC1)c1ccc2nccc(C(=O)NCC(=O)N3CC(F)(F)C[C@H]3C#N)c2c1.[Lu+3]
Stern-Volmer constant (ALB; fluorescence quenching, fluorescence spectroscopy): 13200 M⁻¹

CN1C=CC(=Cc2sc3ccccc3[n+]2C)c2ccccc21
Kd (T1, RNA aptamer; fluorescence titration): 1.04 nM

CCc1occc(=O)c1[O-].[Cl-].[W+4].c1cc[cH-]c1.c1cc[cH-]c1
Stern-Volmer quenching constant (ALB; fluorescence quenching; 317 K): 17500 L/mol

Cc1nn(C)c2nc(N)[nH]c(=O)c2c1=O
melting temperature shift (folP; CETSA HiBiT; Escherichia coli, whole cells; concentration not given; baseline: DMSO): 9.77 °C

COCCCCCNc1nc(NCCCCCCN(C)C)c2cc(NC(=O)/C=C/CN(C)C)ccc2n1
remaining signal (SETDB1; cell-free assay, inhibitor, FP; 1 µM): 36.3%

O=C(CCl)N[C@@H](Cc1cccc(O)c1)C(=O)N1CCCC[C@H]1C(=O)NCCc1c[nH]c2cc(Cl)cc(Cl)c12
second transition share (Peptidyl-prolyl cis-trans isomerase NIMA-interacting 1 (PIN1, Homo sapiens, UniProt Q13526); protein denaturation, thermal shift): 90%

C=CC(C)(C)c1cc(/C=C/C(=O)c2ccc(O)cc2)c(OC)cc1O
lysine labelling ratio (Prothrombin (F2, Homo sapiens, UniProt P00734); chemoproteomic mass spectrometry, measured: Lys-240 exosite II; baseline: without compound): 70%

Nc1nc2[nH]nc(CCC(=O)O)c(=O)c2c(=O)[nH]1
melting temperature shift (folP; CETSA HiBiT; Escherichia coli, whole cells; concentration not given; baseline: DMSO): 2.01 °C

C[C@@H](Nc1nc(N[C@H](C)C(F)(F)F)nc(-c2cccc(Cl)n2)n1)C(F)(F)F
maximum inhibition (Isocitrate dehydrogenase [NADP], mitochondrial, heterodimer with wild-type (IDH2, Homo sapiens, UniProt P48735, R140Q); reverse reaction; 16 h preincubation, mutant): 105 ± 2.8%

CC(C(=O)O)c1n[nH]c2nc(N)[nH]c(=O)c2c1=O (centres unmarked)
melting temperature (folP; CETSA HiBiT; whole cells): 70.8 °C

Cn1c(=O)n(C2CCC(=O)NC2=O)c2ccc(C3CCN(CC(=O)Nc4cccc(CS(=O)(=O)N5CC[C@H](Nc6cccc(-c7sc(C(=O)O)c(OCC(=O)O)c7Cl)c6)CC5(C)C)c4)CC3)cc21 (some centres unmarked)
BLI binding response (Tyrosine-protein phosphatase non-receptor type 1 (PTPN1, Homo sapiens, UniProt P18031); degrader, bio-layer interferometry; 125 nM, biotinylated protein immobilised; higher = more binding): 0.241 a.u.
